# Results from different studies.
# Every numbered part comes from another study and shows a few of its results, in no order.

# Set 1 — method: protein-binding microarray; molecule type: double-stranded DNA, one strand shown; matrix: in vitro; concentration: 250 nM; notes: 60-bp whole probe; together with: salmon DNA 0.4 mg/ml; baseline: random background probes; direction: higher = stronger binding; constant ends, left off below: GCCTAGCAC … GTCTTGATTCGCTTGACGCTGCTG
# Target: Interferon regulatory factor 7, full length, phosphomimetic (IRF7, Homo sapiens, UniProt Q92985, residues 1-503, S101K/S471D/S472D/S475D/S476D/S477D/S483D/S484D/S487D)
# Sequence of UniProt Q92985 (whole entry, unmodified, looked up): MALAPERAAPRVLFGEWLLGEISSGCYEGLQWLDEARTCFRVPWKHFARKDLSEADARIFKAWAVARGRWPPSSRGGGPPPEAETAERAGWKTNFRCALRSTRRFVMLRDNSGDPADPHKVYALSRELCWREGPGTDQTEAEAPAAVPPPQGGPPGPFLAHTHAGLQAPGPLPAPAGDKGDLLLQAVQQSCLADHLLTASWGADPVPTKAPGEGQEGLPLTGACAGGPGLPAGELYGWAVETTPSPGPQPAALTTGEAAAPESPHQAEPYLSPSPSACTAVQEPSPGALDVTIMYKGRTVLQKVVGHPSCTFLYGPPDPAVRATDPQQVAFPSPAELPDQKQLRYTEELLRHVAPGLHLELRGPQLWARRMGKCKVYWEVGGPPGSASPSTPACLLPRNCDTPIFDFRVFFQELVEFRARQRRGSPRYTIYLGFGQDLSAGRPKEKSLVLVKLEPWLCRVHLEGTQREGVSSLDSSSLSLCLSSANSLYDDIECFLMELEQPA
Strand,log fluorescence [z-score]
TTAGGACTGGACACTGTGTTAGTGCTA,-0.573
GGCCCAGGAGGAGGCCCCTCGTGCTAG,-0.139
GACGGTTTCGGGTATCAGGACGTGCTA,7.3
TTAGGTCACGGTATCGGTTAGTGCTAG,1.96
GACGGTTTCGACTTTCGGAACGTGCTA,11.8
GAACTTCTGCATTACAGCTAGTGCTAG,-0.192
GACGGTATCGTCACTGGGGACGTGCTA,-0.415
GACGGAGTGGGGTATCGGGACGTGCTA,-0.576
TTAGGACTGGACACTGGGGTAGTGCTA,-0.583

# Set 2 — method: RNA Bind-n-Seq; molecule type: RNA; matrix: in vitro; concentration: not given; baseline: input RNA pool; direction: higher = stronger binding
# Target: RING finger protein unkempt homolog, zinc fingers 1-6, GST-SBP tag (UNK, Homo sapiens, UniProt Q9C0B0, residues 30-357)
# Sequence of UniProt Q9C0B0 (30-357, looked up): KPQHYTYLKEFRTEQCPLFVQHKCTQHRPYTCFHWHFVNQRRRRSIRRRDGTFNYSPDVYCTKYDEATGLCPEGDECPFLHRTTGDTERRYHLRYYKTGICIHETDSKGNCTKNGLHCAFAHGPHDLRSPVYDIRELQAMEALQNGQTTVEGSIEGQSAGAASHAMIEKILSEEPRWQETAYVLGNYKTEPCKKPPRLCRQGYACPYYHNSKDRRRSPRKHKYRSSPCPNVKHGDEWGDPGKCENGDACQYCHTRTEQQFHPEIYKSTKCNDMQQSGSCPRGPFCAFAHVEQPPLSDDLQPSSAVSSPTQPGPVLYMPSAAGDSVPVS
# Notes: RNA with constant flanks, human and mouse sites, ends assumed
# Constant ends, left off below: GGGAGUUCUACAGUCCGACGAUC … CAACAGAGGAUUGAGCAUCA
Strand,bound/input enrichment
CACUGGAUUGCUCUGCAACCAAAGAAAGCAAUAUGGAAUGAAAAAACUCAUUCACUUUUGUCUUAUUUUCUUUUAAGGUGUAUUGGCAUGUAAUUUGCAUAGAGAAGGUCCUCUGGUUAG,0.167 ratio
CAUCAGGAUGUUCCAUCUCAGGAUGAUUCCAAACCAACCCAGAGGCAAUUUACUAUUCUCAACUUUAAUGAUUUAAUGUCAUCUGCCGUUCCCAUGACACCUGAAGAUCCUUCAUUUUGG,0.157 ratio
UCAGAAGAGGUGCUGGGUCACUUUCCGUAUCCUGAUCCUUCCCAGUGGACAGAUGAAGAAUUAGGUAUCCCUCCUGAUGAUGAAGACUGAAGGUGUAGACUCAGCCUCACUCUGUACAAG,0.132 ratio
UCCAGUCUUACACUUAUGGUUGGCCUCAAAUCUAUUGCAUUUAUGAUAAUGUAUUAUAUCUAGUUGAGUUUAAUAUUUUUUUAUUAGCCUGUAAAUAAAGAUGGCAUCUUCUACAUUAAA,12.2 ratio
CCUUCAGAAACAUUCAUAUUCAUUUUCAUGAGUCAGCAAAAGCCCUACGCUUGAUUCCAACAGAAUAUUUCCUUUACAUACUUUCUUCUCUUAAUUUUUACAAAAUUUGUAUGGUAGGUG,0.867 ratio

# Set 3 — method: RNA Bind-n-Seq; molecule type: RNA; matrix: in vitro; concentration: 365 nM; baseline: no-protein control; direction: higher = stronger binding
# Target: RNA binding protein fox-1 homolog 2, RRM domain, GST-SBP tag (RBFOX2, Homo sapiens, UniProt O43251-10, residues 100-194)
# Notes: natural RNA segment, single round, ends assumed
# Constant ends, left off below: GGGAGUUCUACAGUCCGACGAUC … UGGAAUUCUCGGGUGCCAA
# Construct (chain): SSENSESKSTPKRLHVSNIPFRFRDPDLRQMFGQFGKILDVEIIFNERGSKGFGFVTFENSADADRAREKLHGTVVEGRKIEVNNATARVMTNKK
Strand,RBNS enrichment (R)
GACUCCGUCCCCAAGGGCCAGGCCGGACUGUCCAGACCUGCAGGCUCCGGCCAGAAGCGCCGCUCCGGAAGCGUCCUGCCGCCUCUCGCUUUGCCAGCCUGGGAGCCGCG,0.365
GCCAAGCACCUUGAAUGGGAGGGGCCUCACAGAGGGCAGGGCCAGGGUCCAGCAGGGGUGGGGGGUUCCUGCUCUGCCCCUGCCCGUCCCCACCCAGUCUUGCCCUCCCA,1.54
CGGUACCGUUUACACAGUCACCUCAGACACACCAUUUCACCUCCCUUGCCAAGCUGUUAGCCUUAGAGUGAUUGCAGUGAACACUGUUUACACACCGUGAAUCCAUUCCC,0.324
AAAAAUCUUAUAAGGUUUUACCCUUGAUACGGAAUUUACACAGGUAGGGAGUGUUUAGUGGACAAUAGUGUAGGUUAUGGAUGGAGGUGUCGGUACUAAAUUGAAUAACG,1.78
UAGAUGUACAUAUUGUGUCGGUAGGGCUAUGAGGCAUGUUACAGGAAUGUAAUUUUCUCAGAAUUUACACUCACUCGCAGUCAUUUAUUUAAAAAGAUAAAACAAGAUAA,0.435
AUGUGUGGUGGACUGCAGAGCUGCUUCCACUUACAGGAGAGCUGAUAAUUUGUUAGCUGGAACCUAUUCACUUCCGAGAUUCAGACAUAGCCAUGCUGGUGGCCUUCUGA,0.391

# Single results of other studies
Molecule,target,test,system,setting,scale,endpoint,value
"PhoQ, residues 284 288 289 292 302 303 SLANKL","PhoP, residues 12 14 15 18 19 TQAIL (Escherichia coli, UniProt P23836)","Sort-seq, item: YFP reporter",E. coli,"PhoQ-PhoP variant library, together with: 10 µM Mg2+","baseline: high Mg2+ state, higher = stronger signaling",fold induction,4.72

# A few entries again (set 2):
Strand,bound/input enrichment
CACUGGAUUGCUCUGCAACCAAAGAAAGCAAUAUGGAAUGAAAAAACUCAUUCACUUUUGUCUUAUUUUCUUUUAAGGUGUAUUGGCAUGUAAUUUGCAUAGAGAAGGUCCUCUGGUUAG,0.167 ratio
UCCAGUCUUACACUUAUGGUUGGCCUCAAAUCUAUUGCAUUUAUGAUAAUGUAUUAUAUCUAGUUGAGUUUAAUAUUUUUUUAUUAGCCUGUAAAUAAAGAUGGCAUCUUCUACAUUAAA,12.2 ratio
